Published values gathered from unrelated publications.
Every numbered part comes from another study and shows a few of its results, in no order.

Study 1
Target: Sal-like protein 4, full length isoform B (SALL4, Homo sapiens, UniProt Q9UJQ4-2, residues 1-616)
Technique: universal PBM
Form: double-stranded DNA, one strand shown
Sample: in vitro
Concentration: not given
Notes: 8-mer, flanks averaged, mean of replicates
Reading: higher = stronger binding
Construct (chain): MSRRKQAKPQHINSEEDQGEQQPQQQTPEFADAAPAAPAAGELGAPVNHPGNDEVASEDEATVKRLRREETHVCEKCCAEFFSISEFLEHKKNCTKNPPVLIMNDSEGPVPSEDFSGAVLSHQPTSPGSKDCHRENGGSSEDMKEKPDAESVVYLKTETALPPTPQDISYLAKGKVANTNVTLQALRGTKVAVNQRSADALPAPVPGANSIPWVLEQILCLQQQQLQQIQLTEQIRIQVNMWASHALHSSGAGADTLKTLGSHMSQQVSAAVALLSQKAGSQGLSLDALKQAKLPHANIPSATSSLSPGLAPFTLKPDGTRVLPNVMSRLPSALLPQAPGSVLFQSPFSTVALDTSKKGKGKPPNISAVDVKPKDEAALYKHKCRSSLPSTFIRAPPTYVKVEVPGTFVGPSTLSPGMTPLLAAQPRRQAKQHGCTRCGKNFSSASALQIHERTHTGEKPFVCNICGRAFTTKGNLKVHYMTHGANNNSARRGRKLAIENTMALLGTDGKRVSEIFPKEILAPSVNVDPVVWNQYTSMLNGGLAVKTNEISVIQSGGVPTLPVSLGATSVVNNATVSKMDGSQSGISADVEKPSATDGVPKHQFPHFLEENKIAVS
Oligonucleotide	E-score
ACACAATA	0.271
CTCAATGA	-0.0184
GTACTGAC	-0.0012
ATACTGTG	0.0515
CGACGTCA	-0.0975

Study 2
Target: Histone acetyltransferase KAT6A, both winged helices, GST fusion (KAT6A, Homo sapiens, UniProt Q92794, residues 1-181)
Technique: protein binding microarray
Form: double-stranded DNA, one strand shown
Sample: in vitro
Concentration: not given
Notes: 8-mer, flanks averaged, mean of 2 arrays, mostly near background
Baseline: not given
Reading: higher = stronger binding
Construct (chain): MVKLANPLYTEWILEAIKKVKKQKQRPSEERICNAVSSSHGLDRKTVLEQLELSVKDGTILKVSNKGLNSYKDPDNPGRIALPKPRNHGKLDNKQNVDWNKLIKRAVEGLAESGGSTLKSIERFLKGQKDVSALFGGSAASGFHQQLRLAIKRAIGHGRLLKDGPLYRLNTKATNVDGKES
Oligonucleotide	E-score
AAACGACA	-0.0408
GTCTTCCA	-0.208
GGCCGAGA	0.135
TCCATCGA	-0.0462
CGGACCGC	0.201

Single results of other studies
Molecule	target or system	test	test system	conditions	scale	quantity	result
GSPLKKLFTSTGA	Saccharomyces cerevisiae	peptide binding, yeast competitive growth sequencing	peptide, cyclin F-Cln2 fusion	concentration not given, combined libraries, Cln2-subtracted	direction not given	binding score	1.54
PhoQ, residues 284 288 289 292 302 303 SLANKL	PhoP, residues 12 14 15 18 19 NHFIF (Escherichia coli, UniProt P23836)	Sort-seq, measured: YFP reporter	E. coli	PhoQ-PhoP variant library, with: 10 µM Mg2+	baseline: high Mg2+ state, higher = stronger signaling	fold induction	1.71

Some of these lines once more (study 1):
Oligonucleotide	E-score
ACACAATA	0.271
